Experimental data collected from several papers.
Protocols differ between the studies behind these lines.
Sequence of UniProt P37136 (whole entry, looked up): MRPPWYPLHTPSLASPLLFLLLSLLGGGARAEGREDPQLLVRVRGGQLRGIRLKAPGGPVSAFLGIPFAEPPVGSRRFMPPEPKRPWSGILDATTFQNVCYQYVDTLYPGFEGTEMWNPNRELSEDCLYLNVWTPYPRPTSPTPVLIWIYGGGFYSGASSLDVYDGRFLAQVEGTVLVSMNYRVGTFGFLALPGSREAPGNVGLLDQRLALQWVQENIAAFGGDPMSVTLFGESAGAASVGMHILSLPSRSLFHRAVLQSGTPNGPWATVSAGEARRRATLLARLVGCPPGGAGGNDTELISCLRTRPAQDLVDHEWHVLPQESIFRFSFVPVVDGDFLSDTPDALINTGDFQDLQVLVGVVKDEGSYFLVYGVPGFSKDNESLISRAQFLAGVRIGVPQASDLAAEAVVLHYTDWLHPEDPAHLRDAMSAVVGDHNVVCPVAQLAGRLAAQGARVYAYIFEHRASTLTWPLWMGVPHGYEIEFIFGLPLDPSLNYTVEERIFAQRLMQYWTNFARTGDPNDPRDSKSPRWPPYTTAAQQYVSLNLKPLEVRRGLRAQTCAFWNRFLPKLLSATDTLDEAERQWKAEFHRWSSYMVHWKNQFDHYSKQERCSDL

Molecule | target or system | assay | test system | setting | scale | measurement | value
vorinostat glucuronide | – | – | human, plasma | oral, 400 mg vorinostat three times daily, 3 days, with: idarubicin | – | Cmax | 4.52 µM
phoxim-oxon | Ache (Rattus norvegicus, UniProt P37136) | inhibitor | rat, postnatal day 70, rat brain homogenate | 15 min, 37 °C | – | IC50 | 43 nM
semaglutide | – | refers to: drug dose reduced | human, safety analysis set | concentration not given, 32 weeks, run-in | – | participants with adverse events | 3.1%
maraviroc | – | – | black CYP3A5 extensive metabolizers, plasma | 300 mg twice daily | – | Cmax | 529 ng/mL
deucravacitinib | – | multiple ascending dose | healthy human | oral, 12 mg once daily | – | subjects with headache | 33.3%
chicoric acid | IPEC-J2 monolayer | – | – | with: vinblastine 30 µM | reference: without inhibitor | Papp basolateral to apical | decreased

Repeated from above:
Molecule | target or system | assay | test system | setting | scale | measurement | value
deucravacitinib | – | multiple ascending dose | healthy human | oral, 12 mg once daily | – | subjects with headache | 33.3%
